Measurements gathered from unrelated publications.
Numbered parts are unrelated; each lists some results of a single study. Positions count from the first letter of the parent shown.
Chain of UniProt P63146 (whole entry, looked up): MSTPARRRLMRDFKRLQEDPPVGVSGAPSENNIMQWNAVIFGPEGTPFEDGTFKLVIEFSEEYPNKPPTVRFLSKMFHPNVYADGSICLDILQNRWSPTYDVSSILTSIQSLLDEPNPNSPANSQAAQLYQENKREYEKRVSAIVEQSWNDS
Chain of UniProt P68036 (whole entry, looked up): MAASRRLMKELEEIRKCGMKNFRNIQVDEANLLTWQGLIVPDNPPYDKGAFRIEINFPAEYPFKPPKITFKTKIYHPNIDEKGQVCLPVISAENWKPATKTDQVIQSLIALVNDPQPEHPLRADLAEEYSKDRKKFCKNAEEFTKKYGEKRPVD
Chain of UniProt Q712K3 (whole entry, looked up): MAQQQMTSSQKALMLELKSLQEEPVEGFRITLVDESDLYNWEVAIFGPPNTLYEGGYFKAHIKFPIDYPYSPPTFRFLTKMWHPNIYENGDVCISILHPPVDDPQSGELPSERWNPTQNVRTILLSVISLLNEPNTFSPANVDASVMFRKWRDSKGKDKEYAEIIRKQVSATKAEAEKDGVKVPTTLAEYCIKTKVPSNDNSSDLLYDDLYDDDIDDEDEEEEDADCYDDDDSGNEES
Chain of UniProt Q9H832 (whole entry, looked up): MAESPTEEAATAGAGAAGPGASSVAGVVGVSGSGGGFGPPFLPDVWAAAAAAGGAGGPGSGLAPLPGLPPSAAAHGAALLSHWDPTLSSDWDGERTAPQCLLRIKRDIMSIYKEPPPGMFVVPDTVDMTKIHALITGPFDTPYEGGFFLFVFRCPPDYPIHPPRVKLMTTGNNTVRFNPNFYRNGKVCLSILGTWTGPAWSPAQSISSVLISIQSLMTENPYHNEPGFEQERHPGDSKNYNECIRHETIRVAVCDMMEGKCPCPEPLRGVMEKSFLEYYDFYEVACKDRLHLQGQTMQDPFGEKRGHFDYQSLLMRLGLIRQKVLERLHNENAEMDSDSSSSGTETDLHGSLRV
Chain of UniProt P51668 (whole entry, looked up): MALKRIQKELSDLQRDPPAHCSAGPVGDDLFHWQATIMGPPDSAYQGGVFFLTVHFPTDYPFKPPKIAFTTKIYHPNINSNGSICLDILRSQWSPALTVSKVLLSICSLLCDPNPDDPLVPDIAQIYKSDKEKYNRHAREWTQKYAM
Chain of UniProt Q9NPD8 (whole entry, looked up): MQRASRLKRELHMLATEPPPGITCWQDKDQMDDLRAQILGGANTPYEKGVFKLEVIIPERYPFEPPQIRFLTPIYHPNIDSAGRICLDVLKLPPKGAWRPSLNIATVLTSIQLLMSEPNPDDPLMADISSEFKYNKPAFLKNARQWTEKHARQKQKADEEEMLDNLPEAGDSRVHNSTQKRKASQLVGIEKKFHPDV
Chain of UniProt Q7Z7E8 (whole entry, looked up): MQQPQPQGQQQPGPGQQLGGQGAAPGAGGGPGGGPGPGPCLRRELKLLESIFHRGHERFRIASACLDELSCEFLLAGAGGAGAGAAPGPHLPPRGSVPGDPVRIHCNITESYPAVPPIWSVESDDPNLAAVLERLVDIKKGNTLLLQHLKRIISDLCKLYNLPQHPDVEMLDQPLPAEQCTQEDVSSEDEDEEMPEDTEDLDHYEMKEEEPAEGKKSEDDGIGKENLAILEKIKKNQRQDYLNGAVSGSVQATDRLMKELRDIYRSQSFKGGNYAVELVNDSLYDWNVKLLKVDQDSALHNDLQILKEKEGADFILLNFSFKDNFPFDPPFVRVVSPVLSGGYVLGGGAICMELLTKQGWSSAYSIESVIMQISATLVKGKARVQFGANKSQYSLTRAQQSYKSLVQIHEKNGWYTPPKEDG
Chain of UniProt O00762 (whole entry, looked up): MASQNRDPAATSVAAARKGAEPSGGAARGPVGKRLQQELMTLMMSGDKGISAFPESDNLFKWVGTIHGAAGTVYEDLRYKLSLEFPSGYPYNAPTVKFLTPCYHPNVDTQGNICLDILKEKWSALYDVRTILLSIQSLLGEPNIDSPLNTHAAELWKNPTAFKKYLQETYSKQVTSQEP

Block 1 — method: yeast two-hybrid; medium: yeast; notes: mostly zero background; baseline: not given; reading: higher = stronger interaction
Molecule: FVKTVEDKYKCEKCHLVLCSPKQTECGHRFCESCMAALLSSSSPKCTACQESIVKDKVF (TRAF3 RING domain (UniProt Q13114))
target	lacZ reporter activity
UBE2Z UBC core domain (UniProt Q9H832)	0
UBE2L3 UBC core domain (UniProt P68036)	0
UBE2D1 UBC core domain (UniProt P51668)	0
UBE2B UBC core domain (UniProt P63146)	0
UBE2Q1 UBC core domain (UniProt Q7Z7E8)	0
UBE2T UBC core domain (UniProt Q9NPD8)	0
UBE2C UBC core domain (UniProt O00762)	0
UBE2R2 UBC core domain (UniProt Q712K3)	0
UBE2I UBC core domain (UniProt P63279)	0

Block 2 — method: DHFR PCA, deep sequencing; medium: yeast; together with: (+)-ABA 58 µM; baseline: wild-type fitted maximum; reading: higher = stronger binding
Target: ABI1, truncated, D143A, DHFR fusion (Arabidopsis thaliana)
Notes: methotrexate growth selection, single substitutions
Starting sequence: PYL1, truncated, DHFR fusion (Arabidopsis thaliana); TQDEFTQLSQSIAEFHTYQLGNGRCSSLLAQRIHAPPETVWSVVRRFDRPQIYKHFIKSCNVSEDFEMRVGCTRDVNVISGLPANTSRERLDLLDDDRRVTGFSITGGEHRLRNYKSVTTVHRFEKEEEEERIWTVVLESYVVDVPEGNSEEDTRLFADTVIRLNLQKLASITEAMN
Substitution	relative binding score [%]
W41Q	-18.8
V121E	0.0443
L20P	91.8
D65S	82.2
T6A	96.5
I133S	98.2
V100R	49.2
L28T	64.5
R24W	42.3
E139V	79.7
T120L	-8.96
N22D	95.5
T173R	4.07
T101M	90
L94K	9.32
V142Y	53

Block 3 — method: aptamer microarray, sandwich; form: DNA with 2'F-ANA; medium: in vitro; tested at: 200 nM; together with: Cy3 exosite-II aptamer, 400 nM; reading: higher = stronger binding; strand: GGTTGGTGTGGTTGG
Target: Prothrombin, mature alpha-thrombin (F2, Homo sapiens, UniProt P00734)
Notes: whole 15-mer aptamer, many near background
Modification	mean fluorescence intensity [a.u.]
2'F-ANA at 1 2 5 9 11 14	47.8
2'F-ANA at 3 6 7 10 13 14	461
2'F-ANA at 3 4 8 9 12 13 14 15	285
2'F-ANA at 6 8 9 10 11 12	172
2'F-ANA at 2 7 10 14 15	91.8
2'F-ANA at 3 4 5 9 11 13 14 15	48.5
2'F-ANA at 1 3 4 5 11 12 14	43.7
2'F-ANA at 7 10 11 14	113
2'F-ANA at 1 7 8 14 15	65.4
2'F-ANA at 1 3 7 10 15	88.3
2'F-ANA at 1 2 3 4 6 8 10 11 13 14	51.2
2'F-ANA at 1 2 3 4 7 10 11 12	71.8
2'F-ANA at 1 3 4 8 11 14 15	72.9
2'F-ANA at 2 3 4 6 8 9 10 11	198
2'F-ANA at 1 2 4 8 13 15	103
2'F-ANA at 1 2 7 11 13 14	52.9
2'F-ANA at 1 3 5 6 7 9 11 14 15	44.1
2'F-ANA at 3 4 6 7 9 10 11 12	246
2'F-ANA at 2 4 5 7 8 10 12 14	44.4
2'F-ANA at 1 4 5 7 8 10 13	56.4
2'F-ANA at 2 4 5 7 8 9 10 12 13	49.5
2'F-ANA at 3 4 7 10 11 12 13	307

Block 4 — method: protein-binding microarray; form: double-stranded DNA, one strand shown; medium: in vitro; tested at: 250 nM; notes: 60-bp whole probe; together with: salmon DNA 0.4 mg/ml; baseline: random background probes; reading: higher = stronger binding; constant ends, left off below: GCCTAGCAC … GTCTTGATTCGCTTGACGCTGCTG
Target: Interferon regulatory factor 5, full length, phosphomimetic (IRF5, Homo sapiens, UniProt Q13568-2, residues 1-514, K96S/S451D/S453D/S456D/S462D)
Strand	log fluorescence
TCAGTTTCCTTCCTCTTACTGTGCTAG	2.15 z-score
GACGGAATCGGGTTTCGGGACGTGCTA	2.69 z-score
TCATATTTAAGGCATCTGACTGTGCTA	0.153 z-score
TTAGATTTCGGGAATGGATTAGTGCTA	3.29 z-score
GACGATTTCGGGTATCGAAACGTGCTA	6.34 z-score
GACGAACTTAGACTGGAGACGTGCTAG	-0.503 z-score
GACGATATCAGTGTCGAGACGTGCTAG	0.784 z-score
GACGTTATCCTTATCCTGACGTGCTAG	0.117 z-score
GACGGTTTCGACTATCCGGACGTGCTA	6.71 z-score
TCACATATTTGTTTCCAACTGTGCTAG	0.835 z-score
TCATTTCTCAACCATTTTACTGTGCTA	1.47 z-score
AGTTTATTTATTTTTACATTGTGCTAG	1.2 z-score
GACGGCATCGGGACTGGGGACGTGCTA	-0.519 z-score
GACGAACTGGGGTATAGAGACGTGCTA	-0.34 z-score
GTAGATTTCAGACTGGATTAGTGCTAG	0.227 z-score
GACGGTTTCGGGTATAGGGACGTGCTA	7.47 z-score
TATCAGCAAACTTTTCTTGAGTGCTAG	3.06 z-score
GACGATTTCTGACTGGAGACGTGCTAG	0.259 z-score
GACGATATCCGGTTTCGAGACGTGCTA	3.3 z-score
